Measured values of several laboratories.
Parts stem from different laboratories: compare values within a part only. Changes are numbered by the printed parent chain.

Sample 1 — technique: RNA Bind-n-Seq; molecule type: RNA; sample: in vitro; tested at: 200 nM; setting: whole 134-nt RNA, ends assumed; together with: 150 mM KCl; relative to: input library; direction: higher = stronger binding
Target: Ras GTPase-activating protein-binding protein 1, full length (G3BP1, Homo sapiens, UniProt Q13283)
Chain of UniProt Q13283 (whole entry, looked up): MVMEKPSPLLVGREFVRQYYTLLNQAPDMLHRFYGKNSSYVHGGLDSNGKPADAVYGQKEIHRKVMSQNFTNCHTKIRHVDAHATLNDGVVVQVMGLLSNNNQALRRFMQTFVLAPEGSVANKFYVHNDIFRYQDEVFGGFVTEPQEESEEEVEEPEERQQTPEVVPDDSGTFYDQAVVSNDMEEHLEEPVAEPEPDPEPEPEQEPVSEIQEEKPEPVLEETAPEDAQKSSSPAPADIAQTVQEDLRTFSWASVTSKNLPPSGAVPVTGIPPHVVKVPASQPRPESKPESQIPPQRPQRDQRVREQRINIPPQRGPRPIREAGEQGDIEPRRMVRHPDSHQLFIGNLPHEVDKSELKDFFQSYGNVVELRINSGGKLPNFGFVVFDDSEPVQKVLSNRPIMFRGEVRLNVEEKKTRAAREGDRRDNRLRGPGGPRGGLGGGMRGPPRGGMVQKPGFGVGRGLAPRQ
All sequences stand within: GGGAGUUCUACAGUCCGACGAUC … UGGAAUUCUCGGGUGUCAAGG
Strand | log2 enrichment
UGGCCCUGGUGGCAUGCGGGGAGGAAGAGGUGGCCUCAUGGAUCGUGGUGGUCCCGGUGGAAUGUUCAGAGGUGGCCGUGGUGGAGAAAG | 0.342
CUCAAGUCCUGUGCUACACAUCGUAUGUACCGAAUCGGGCGGGGCGGGGCGGGGAAAGUAUUAUGUUACGCCGUUCGGAUCUGCACUUCC | 1.47
CACAGACAACACGCACCCAUACAGACACAGAGGGAAGGGGUUGGGAUGGGGACAGGGUGCACAGCAGGGCGGGGUAGGACCCCAGCCCCU | 2.06
UCAAGUCCUGUGCUACACAUCGUAUGUACCGAAUCGGGAAAAAGGGAGGGUGGGAAAGUAUUAUGUUACGCCGUUCGGAUCUGCACUUCC | 1.02
CUCAAGUCCUGUGCUACACAUCGUAUGUACCGAAUCGGUUUGGAAAAAGGAGGAAAGUAUUAUGUUACGCCGUUCGGAUCUGCACUUCCA | -0.382
UGGGAGGUGGAUUUUGUUUAUUUUCUUAGCUCAUUUCCAGGGGUGGGAAUUUUUUUUUAAUAUGUGUCAUGAAUAAAGUUGUUUUUGAAA | 0.161
UAACUUUAGAGGAGGAUCUGCUGGAUAUGGCAGUGGACGUGGAUUUGGGGAUGGCUAUAAUGGGUAUGGAGGAGGACCUGGAGGUGGCAA | 0.285
UCCUGUGCUACACAUCGUAUGUACCGAAUCGGGGAAAAAAGGGAAAAAAGGAAAAAAGGAAAGUAUUAUGUUACGCCGUUCGGAUCUGCA | -0.332

Sample 2 — target: DDIT3, bZIP domain (human); technique: DHFR protein complementation; sample: yeast; relative to: wild-type JUN-FOS pair; direction: higher = stronger binding
Setting: single substitutions, most at no-binding floor
Parent: JUN, bZIP domain (human); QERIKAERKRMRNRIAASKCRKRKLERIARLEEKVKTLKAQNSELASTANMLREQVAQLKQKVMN; partner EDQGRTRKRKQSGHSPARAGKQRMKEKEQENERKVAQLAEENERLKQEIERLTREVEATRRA
Change | binding fitness
V35E | -0.298 natural log
E44Q | 0.0196 natural log
L45Q | -0.939 natural log
Q41L | -0.0266 natural log
L45A | -1.08 natural log
A57P | -1.29 natural log
K34A | 0.0394 natural log
Q55H | -0.0115 natural log

Sample 3 — technique: competition protein-binding microarray; molecule type: double-stranded DNA, one strand shown; sample: in vitro; tested at: 2 µM; together with: Pho4 competitor, 0.05 µM; direction: higher = stronger binding; all sequences stand within: … GTCTTGATTCGCTTGACGCTGCTG
Target: Centromere-binding protein 1, full length, His-tagged (CBF1, Saccharomyces cerevisiae, UniProt P17106, residues 1-351)
Chain of UniProt P17106 (whole entry, looked up): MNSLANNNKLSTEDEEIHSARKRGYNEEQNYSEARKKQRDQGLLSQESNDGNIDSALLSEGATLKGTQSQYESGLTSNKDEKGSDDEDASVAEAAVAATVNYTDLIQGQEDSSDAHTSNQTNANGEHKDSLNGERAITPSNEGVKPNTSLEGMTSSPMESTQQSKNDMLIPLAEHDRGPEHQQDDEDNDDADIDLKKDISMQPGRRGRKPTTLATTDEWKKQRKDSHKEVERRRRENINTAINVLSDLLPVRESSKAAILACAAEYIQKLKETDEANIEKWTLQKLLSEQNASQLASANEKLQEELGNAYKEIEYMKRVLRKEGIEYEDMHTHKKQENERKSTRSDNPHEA
Setting: whole 60-bp probe, lowest competitor level
Strand | fluorescence intensity
GTTTCGTAAGTAGTGCGCGTGCAAATTTCGCCCGTT | 107 a.u.
CGATTCACTGTCCATCACGGGTCCGCCTGGCACTGG | 128 a.u.
AAAGCGGTAATTTGTGACGTGGGTGCAGATATCTAT | 82 a.u.
GCCAGTCGCCAATGCCACCTGATTCTCTGGTCGATT | 77.3 a.u.
AAATTACTAAGTTGTATTGTGGGTGACGCCGTATGA | 79.2 a.u.
AAATTACTAAGTTGAAGGGTGGGTGACGCCGTATGA | 71.1 a.u.
CCACCGGGGGCAAGTCTCATGACAATTGGCGCAAAT | 101 a.u.
AAAGCGGTAATTTATCACGTGTTTTCACATATCTAT | 4940 a.u.

Single results of other studies
Molecule | target | assay | system | setting | measurement | result
RSVWIPGRW | HLA class I histocompatibility antigen, A alpha chain, allele A*80:01 (Homo sapiens, UniProt P04439) | peptide-MHC binding | peptide | concentration not given | binding | inactive
